Experimental data from different studies.
Parts stem from different laboratories: compare values within a part only. Substitutions count along the parent as printed.

Series 1 — target: CCNE2, cyclin fold, Cln2 fusion (human); method: yeast growth competition, sequencing; medium: yeast; setting: strong parent motif; baseline: not given; reading: higher = stronger binding
Starting sequence: CDKN1B docking peptide (human); PSACRNLFGPVDH
Under “normalised enrichment score”, `PSACRNLFGIVDH [P10I]` is recorded as 0.861.
`PSACKNLFGPVDH [R5K]` — result for “normalised enrichment score”: 0.394.
`PSAARNLFGPVDH [C4A]`: “normalised enrichment score” 0.717.
`PKACRNLFGPVDH [S2K]`: “normalised enrichment score” 1.5.

Series 2 — method: RNA Bind-n-Seq; form: RNA; medium: in vitro; concentration: 365 nM; baseline: no-protein control; reading: higher = stronger binding
Target: RNA binding protein fox-1 homolog 2, RRM domain, GST-SBP tag (RBFOX2, Homo sapiens, UniProt O43251-10, residues 100-194)
Setting: natural RNA segment, single round, ends assumed
Constant ends, left off below: GGGAGUUCUACAGUCCGACGAUC … UGGAAUUCUCGGGUGCCAA
Target sequence (chain): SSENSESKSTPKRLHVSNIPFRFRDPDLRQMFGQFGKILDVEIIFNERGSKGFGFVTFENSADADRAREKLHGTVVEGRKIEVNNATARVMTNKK
For `AAUGACUUCUUCCUAGAGGACAACAAUGACCAGGACACUGGCAGCUCCUGAUCCUGACCUCUGCAGCCUCUUUAACUGCCCCUCCUAUGGCCCCUGCCCUUCUCUUUCUC`, “RBNS enrichment (R)” read 0.629.
`UGCUGGAUUAUUGUCUGUCUUUAUAGCAAGUUCCAGUAAACCACAAGUAUGGCAAAGCUUAUCCAAUUUUAUGCUUGGAGCAGUCAGUACAUACCAGUUUCUGAUGUUUC` — result for “RBNS enrichment (R)”: 0.324.
`GGCGGCUCCCCAGGGAUGCGCCGAGGGAGAUGGGAAACGGGGCGGAUGGCGCCCAGCCCAGCCCUAACUGCCAGCUGGCUGGGGUUGCGCCCCACUGCGCUGCUGACCUU` — result for “RBNS enrichment (R)”: 0.345.
Under “RBNS enrichment (R)”, `AAGACCUUUGUUUUAAGACUUCCACACACCAAGGCUACAAUGACUGUUAACCUGGAGGAAGUCUCUGGUAUGGAGUUCUGAGAGCUUAAGAGCUAAACAUGAGUUUAGAC` is recorded as 0.354.
For `GACUGAAUAGUUGGGUUUUAAAAGUGCAUGCUAUAAACAGACGAGCAUCCUAGAGCUCACUGAGCACUGCUGAGCUUUGACACGCCAGCCACACACAGCUUGCUGCUGUC`, “RBNS enrichment (R)” read 2.4.

Series 3 — method: universal PBM; form: double-stranded DNA, one strand shown; medium: in vitro; concentration: not given; reading: higher = stronger binding
Target: Sal-like protein 4, full length isoform B (SALL4, Homo sapiens, UniProt Q9UJQ4-2, residues 1-616)
Setting: 8-mer, flanks averaged, mean of replicates
Target sequence (chain): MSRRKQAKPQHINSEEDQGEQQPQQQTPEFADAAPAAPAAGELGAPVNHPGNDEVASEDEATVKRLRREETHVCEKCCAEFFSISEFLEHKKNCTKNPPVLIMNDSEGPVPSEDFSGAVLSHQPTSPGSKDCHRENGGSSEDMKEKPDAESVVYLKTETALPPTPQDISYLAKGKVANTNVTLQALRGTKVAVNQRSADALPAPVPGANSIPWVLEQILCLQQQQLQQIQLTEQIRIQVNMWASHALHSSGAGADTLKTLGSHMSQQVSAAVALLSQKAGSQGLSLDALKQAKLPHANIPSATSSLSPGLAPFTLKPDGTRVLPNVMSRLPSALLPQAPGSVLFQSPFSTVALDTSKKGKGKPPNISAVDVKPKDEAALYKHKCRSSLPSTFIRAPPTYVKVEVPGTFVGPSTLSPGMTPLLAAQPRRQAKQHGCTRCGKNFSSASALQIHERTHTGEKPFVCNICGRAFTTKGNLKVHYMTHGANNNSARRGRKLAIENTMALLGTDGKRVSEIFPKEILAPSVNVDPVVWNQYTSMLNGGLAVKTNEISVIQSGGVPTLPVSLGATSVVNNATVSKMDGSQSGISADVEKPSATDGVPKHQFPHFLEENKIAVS
With `ATCCACCA` the E-score was 0.0675.
`GATTATGA` has an E-score of 0.399.
`AGAGCTCT` gave an E-score of -0.333.
`CAAGCGGC` has an E-score of -0.262.
`AATTGCTG` has an E-score of 0.123.

Single results of other studies
For `PhoQ, residues 284 288 289 292 302 303 SMYGEC`, the fold induction was 6.85 (PhoP, residues 12 14 15 18 19 AQALL (Escherichia coli, UniProt P23836); Sort-seq, refers to: YFP reporter; E. coli; PhoQ-PhoP variant library, added: 10 µM Mg2+; baseline: high Mg2+ state, higher = stronger signaling).

A few entries again (series 3):
`GATTATGA` has an E-score of 0.399.
`AGAGCTCT` gave an E-score of -0.333.
